Assay results of several laboratories.
Numbers after ± are the reported error.

| Compound | test system | conditions | tissue uptake |
| --- | --- | --- | --- |
| O=C(O)CC[C@H](NC(=O)O[C@@H](CCCCNC(=O)c1ccc([18F])cc1)C(=O)O)C(=O)O | mouse, PC-3 PIP/flu xenografts, bladder | 60 min | 5.5 ± 3.45 %ID/g |
| O=C(c1ccc(F)cc1)C1CCN(C2Cc3c(cccc3OCC[18F])CC2O)CC1 (single isomer, unassigned; (-)) | Sprague-Dawley rat, male, blood | intravenous, dose not given, 120 min | 0.356 ± 0.019 %ID/g |
| N=C(N)NCc1ccc(C(=O)NCCCC[C@H](NC(=O)CCCCCCC(=O)NCCCC[C@H](NC(=O)N[C@@H](CCC(=O)O)C(=O)O)C(=O)O)C(=O)O)cc1[131I] | SCID mouse, PC-3 xenografts, spleen | 21 h | 0.16 ± 0.07 %ID/g |
| CCNc1cc2[o+]c3cc(NCC)c(C)cc3c(-c3ccccc3C(=O)OCCOCC[18F])c2cc1C | rat, spleen | 120 min | 1.86 ± 0.41 %ID/g |
| CN[C@](C)(C[18F])C(=O)O | SCID mouse SK-OV-3 xenograft, spleen | 120 min, post injection | 6.2 ± 0.9 %ID/g |
| N=C(N)NCc1ccc(C(=O)NCCCC[C@H](NC(=O)N[C@@H](CCC(=O)O)C(=O)O)C(=O)O)cc1[131I] | SCID mouse, PC-3 xenografts, muscle | 21 h | 0.03 ± 0.02 %ID/g |
| C=Cc1cc(O)cc2nc(-c3ccc(O)c([76Br])c3)oc12 | female C57BL/6 mouse, uterus | 1 h, low dose | 0.26 ± 0.09 %ID/g |
| N=C(N)NCc1ccc(C(=O)NCCCC[C@H](NC(=O)N[C@@H](CCC(=O)O)C(=O)O)C(=O)O)cc1[211At] | SCID mouse, PC-3 xenografts, spleen | 1 h | 17.1 ± 3.71 %ID/g |
| COc1cc2ccnc(Cc3ccc(O[11CH3])c(OC)c3)c2cc1OC | Sprague-Dawley rats, kidney | intravenous, 0.08333 h | 0.743 ± 0.05 %ID/g |
| COc1cc2ncnc(Oc3cccc(N[11C](=O)Nc4cc(C(C)(C)C(F)(F)F)on4)c3)c2cc1OC | Balb/c nude mouse, female, A375 melanoma xenograft, lung | 6.6 MBq, 60 min | 5.16 ± 0.34 %ID/g |

For quick reference, copied from above:
| Compound | test system | conditions | tissue uptake |
| --- | --- | --- | --- |
| CCNc1cc2[o+]c3cc(NCC)c(C)cc3c(-c3ccccc3C(=O)OCCOCC[18F])c2cc1C | rat, spleen | 120 min | 1.86 ± 0.41 %ID/g |
